# Assay results from different studies.
# A part holds a random share of what one study measured. Substitutions count along the parent as printed.

# Series 1
# Target: Interferon regulatory factor 5, full length, phosphomimetic (IRF5, Homo sapiens, UniProt Q13568-2, residues 1-514, S451D/S453D/S456D/S462D)
# Technique: protein-binding microarray
# Form: double-stranded DNA, one strand shown
# Medium: in vitro
# Tested at: 940 nM top
# Setting: 60-bp whole probe
# Together with: salmon DNA 0.4 mg/ml
# Reference: random background probes
# Direction: higher = stronger binding
# Shared flanks, not repeated: GCCTAGCAC … GTCTTGATTCGCTTGACGCTGCTG
Oligonucleotide,fitted relative affinity
GACCGACTGGGTATCGGGACGTGCTAG,1.53 z-score
TTAGGACTGGACACTGGGTTCGTGCTA,-0.627 z-score
GACGGACTGCTTTGCCTGACGTGCTAG,-0.691 z-score
TCAATTTTCTCTTATTCACTGTGCTAG,1.81 z-score
AAGCAAAAATGATTGGTTGAGTGCTAG,0.2 z-score
CTTCTCCTCCAGGTTCTCTGAGTGCTA,0.0337 z-score
TTAGATATCGGGTATCTATTAGTGCTA,0.655 z-score
TTAGGTCTCCTTTTCCTTTGGTGCTAG,0.708 z-score
TTTAGAAAGATTAGGGGTGCGTGCTAG,-0.12 z-score
GACGGTTTCGGTACCGGGACGTGCTAG,13.8 z-score

# Series 2
# Target: Prothrombin, mature alpha-thrombin (F2, Homo sapiens, UniProt P00734)
# Technique: aptamer microarray, sandwich
# Form: DNA with 2'F-ANA
# Medium: in vitro
# Tested at: 200 nM
# Setting: whole 15-mer aptamer, many near background
# Together with: Cy3 exosite-II aptamer, 400 nM
# Direction: higher = stronger binding
# Oligonucleotide: GGTTGGTGTGGTTGG
Modification,mean fluorescence intensity
2'F-ANA at 1 3 5 6 7 9 13,73.4 a.u.
2'F-ANA at 2 3 5 7 8 11 12,208 a.u.
2'F-ANA at 2 7 9 11 13 14 15,147 a.u.
2'F-ANA at 1 2 3 4 5 6 9 10 11 12 13 15,49.4 a.u.
2'F-ANA at 2 3 6 7 9 11 13 15,434 a.u.
2'F-ANA at 1 2 4 5 6 7 9 10 13 14,49.9 a.u.
2'F-ANA at 3 5 6 7 8 9 10 13 15,64.4 a.u.

# Series 3
# Target: CCNB1, cyclin fold, Cln2 fusion (human)
# Technique: yeast growth competition, sequencing
# Medium: yeast
# Setting: strong parent motif
# Reference: not given
# Direction: higher = stronger binding
# Starting sequence: PKN2 docking peptide (human); VSAVQKLDFSDTM; partner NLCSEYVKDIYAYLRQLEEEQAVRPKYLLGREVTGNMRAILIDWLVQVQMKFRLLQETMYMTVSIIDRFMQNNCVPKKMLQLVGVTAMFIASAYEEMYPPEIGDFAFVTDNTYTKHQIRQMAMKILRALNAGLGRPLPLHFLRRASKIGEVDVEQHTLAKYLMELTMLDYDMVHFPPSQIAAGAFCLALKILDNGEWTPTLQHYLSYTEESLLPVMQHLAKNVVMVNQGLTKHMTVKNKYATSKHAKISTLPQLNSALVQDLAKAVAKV
Variant,normalised enrichment score
VSAVQKLYFSDTM [D8Y],1.59
VSAVQKLDFTDTM [S10T],1.95
VSARQKLDFSDTM [V4R],0.95
VSAVQKLDWSDTM [F9W],0.21
VSAVQKLDFPDTM [S10P],1.56
VSAVQKLDFSYTM [D11Y],0.676
VSAVQKLDFSGTM [D11G],1.71
VSAFQKLDFSDTM [V4F],0.607

# Single results of other studies
Molecule,target,assay,test system,conditions,scale,endpoint,result
"PhoQ, residues 284 288 289 292 302 303 SIHMAM","PhoP, residues 12 14 15 18 19 NYFTV (Escherichia coli, UniProt P23836)","Sort-seq, item: YFP reporter",E. coli,"PhoQ-PhoP variant library, together with: 10 µM Mg2+","reference: high Mg2+ state, higher = stronger signaling",fold induction,4.95

# A few entries again (series 1):
Oligonucleotide,fitted relative affinity
TCAATTTTCTCTTATTCACTGTGCTAG,1.81 z-score
CTTCTCCTCCAGGTTCTCTGAGTGCTA,0.0337 z-score
